Experimental data gathered from unrelated publications.
Compare with care: the assays were run in different laboratories. ± gives the spread as reported.
blaNDM-1: Metallo-beta-lactamase type 2 (blaNDM-1, Klebsiella pneumoniae, UniProt C7C422)
Chain of UniProt C7C422 (whole entry, looked up): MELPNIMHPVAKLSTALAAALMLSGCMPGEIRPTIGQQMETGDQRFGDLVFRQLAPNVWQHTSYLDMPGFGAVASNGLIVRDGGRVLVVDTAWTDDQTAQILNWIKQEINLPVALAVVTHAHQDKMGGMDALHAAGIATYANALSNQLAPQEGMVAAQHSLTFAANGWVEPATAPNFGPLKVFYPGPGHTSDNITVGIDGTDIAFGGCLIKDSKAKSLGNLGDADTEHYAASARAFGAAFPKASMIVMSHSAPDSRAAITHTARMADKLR
lasR: Transcriptional activator protein LasR (lasR, Pseudomonas aeruginosa, UniProt P25084)
Chain of UniProt P25084 (whole entry, looked up): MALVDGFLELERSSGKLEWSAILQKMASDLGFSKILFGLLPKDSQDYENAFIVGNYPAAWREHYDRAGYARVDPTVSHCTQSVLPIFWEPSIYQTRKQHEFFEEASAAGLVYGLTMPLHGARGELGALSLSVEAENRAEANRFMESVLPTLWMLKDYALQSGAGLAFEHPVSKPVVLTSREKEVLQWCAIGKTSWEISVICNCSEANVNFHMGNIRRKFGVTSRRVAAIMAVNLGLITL
Formate-nitrite transporter: Formate-nitrite transporter (Plasmodium falciparum, UniProt O77389)
Chain of UniProt O77389 (whole entry, looked up): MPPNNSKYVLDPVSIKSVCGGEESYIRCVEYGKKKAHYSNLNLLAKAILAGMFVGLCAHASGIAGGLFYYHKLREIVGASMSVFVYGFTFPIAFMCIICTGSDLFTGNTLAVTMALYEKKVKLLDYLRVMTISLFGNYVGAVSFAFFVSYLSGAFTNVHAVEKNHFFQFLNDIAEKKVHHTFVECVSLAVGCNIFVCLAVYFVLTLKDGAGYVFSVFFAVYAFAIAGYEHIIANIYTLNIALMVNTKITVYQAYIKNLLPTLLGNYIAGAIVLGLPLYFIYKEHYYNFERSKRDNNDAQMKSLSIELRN
Chain of UniProt Q9NXA8 (whole entry, looked up): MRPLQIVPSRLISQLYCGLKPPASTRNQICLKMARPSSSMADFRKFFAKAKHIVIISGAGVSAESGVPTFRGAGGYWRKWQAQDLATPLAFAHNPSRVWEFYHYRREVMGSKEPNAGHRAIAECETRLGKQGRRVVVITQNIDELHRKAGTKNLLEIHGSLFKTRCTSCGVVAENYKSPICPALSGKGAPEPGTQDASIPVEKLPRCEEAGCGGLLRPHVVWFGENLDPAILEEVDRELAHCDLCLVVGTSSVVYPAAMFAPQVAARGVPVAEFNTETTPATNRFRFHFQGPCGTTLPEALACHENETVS
Chain of UniProt Q99436 (whole entry, looked up): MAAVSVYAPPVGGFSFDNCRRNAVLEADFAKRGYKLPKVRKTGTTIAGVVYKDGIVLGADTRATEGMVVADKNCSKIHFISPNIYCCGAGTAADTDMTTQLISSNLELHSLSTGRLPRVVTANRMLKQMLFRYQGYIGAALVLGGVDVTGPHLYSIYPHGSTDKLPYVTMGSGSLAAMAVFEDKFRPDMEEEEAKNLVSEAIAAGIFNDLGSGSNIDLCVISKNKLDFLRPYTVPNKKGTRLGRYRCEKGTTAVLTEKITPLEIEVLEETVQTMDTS
Chain of UniProt Q03431 (whole entry, looked up): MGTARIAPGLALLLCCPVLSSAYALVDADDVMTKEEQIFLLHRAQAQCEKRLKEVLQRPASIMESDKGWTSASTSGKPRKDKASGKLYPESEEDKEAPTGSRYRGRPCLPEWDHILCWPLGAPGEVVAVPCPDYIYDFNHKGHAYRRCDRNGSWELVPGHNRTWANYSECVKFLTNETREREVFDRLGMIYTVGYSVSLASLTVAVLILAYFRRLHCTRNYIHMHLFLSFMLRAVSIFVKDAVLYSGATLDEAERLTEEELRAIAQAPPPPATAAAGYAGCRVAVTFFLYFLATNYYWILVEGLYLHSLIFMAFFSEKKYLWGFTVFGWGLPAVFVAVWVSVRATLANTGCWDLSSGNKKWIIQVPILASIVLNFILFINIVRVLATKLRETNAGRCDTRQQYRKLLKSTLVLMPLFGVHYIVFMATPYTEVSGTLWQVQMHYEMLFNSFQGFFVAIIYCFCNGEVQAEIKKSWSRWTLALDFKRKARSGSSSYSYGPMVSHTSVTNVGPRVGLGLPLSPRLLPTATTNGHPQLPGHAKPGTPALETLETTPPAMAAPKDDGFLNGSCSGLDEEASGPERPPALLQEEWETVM
Chain of UniProt Q8IXJ6 (whole entry, looked up): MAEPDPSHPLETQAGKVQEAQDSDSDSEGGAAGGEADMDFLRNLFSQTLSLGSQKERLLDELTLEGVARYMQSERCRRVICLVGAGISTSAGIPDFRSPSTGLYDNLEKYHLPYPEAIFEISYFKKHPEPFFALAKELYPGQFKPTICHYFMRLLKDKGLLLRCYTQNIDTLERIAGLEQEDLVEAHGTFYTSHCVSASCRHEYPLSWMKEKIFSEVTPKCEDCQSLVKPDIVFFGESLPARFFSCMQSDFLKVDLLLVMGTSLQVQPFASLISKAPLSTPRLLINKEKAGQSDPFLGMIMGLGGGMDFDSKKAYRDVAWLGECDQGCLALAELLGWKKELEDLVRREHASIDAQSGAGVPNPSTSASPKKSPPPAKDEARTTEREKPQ
Chain of UniProt P23141 (whole entry, looked up): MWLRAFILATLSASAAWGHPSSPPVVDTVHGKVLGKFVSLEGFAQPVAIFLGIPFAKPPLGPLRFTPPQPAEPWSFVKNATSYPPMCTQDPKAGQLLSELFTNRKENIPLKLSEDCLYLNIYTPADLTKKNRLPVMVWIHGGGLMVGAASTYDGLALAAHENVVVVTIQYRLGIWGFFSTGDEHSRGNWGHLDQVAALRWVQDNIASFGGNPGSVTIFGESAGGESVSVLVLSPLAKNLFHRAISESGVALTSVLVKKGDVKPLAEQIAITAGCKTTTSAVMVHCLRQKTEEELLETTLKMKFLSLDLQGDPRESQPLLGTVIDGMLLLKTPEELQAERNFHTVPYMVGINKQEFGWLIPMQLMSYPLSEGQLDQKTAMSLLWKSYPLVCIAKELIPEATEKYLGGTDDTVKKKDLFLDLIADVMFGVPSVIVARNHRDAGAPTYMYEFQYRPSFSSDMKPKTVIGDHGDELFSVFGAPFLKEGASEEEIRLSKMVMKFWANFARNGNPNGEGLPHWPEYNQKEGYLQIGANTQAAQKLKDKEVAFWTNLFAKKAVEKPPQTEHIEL
Chain of UniProt Q9Y2J8 (whole entry, looked up): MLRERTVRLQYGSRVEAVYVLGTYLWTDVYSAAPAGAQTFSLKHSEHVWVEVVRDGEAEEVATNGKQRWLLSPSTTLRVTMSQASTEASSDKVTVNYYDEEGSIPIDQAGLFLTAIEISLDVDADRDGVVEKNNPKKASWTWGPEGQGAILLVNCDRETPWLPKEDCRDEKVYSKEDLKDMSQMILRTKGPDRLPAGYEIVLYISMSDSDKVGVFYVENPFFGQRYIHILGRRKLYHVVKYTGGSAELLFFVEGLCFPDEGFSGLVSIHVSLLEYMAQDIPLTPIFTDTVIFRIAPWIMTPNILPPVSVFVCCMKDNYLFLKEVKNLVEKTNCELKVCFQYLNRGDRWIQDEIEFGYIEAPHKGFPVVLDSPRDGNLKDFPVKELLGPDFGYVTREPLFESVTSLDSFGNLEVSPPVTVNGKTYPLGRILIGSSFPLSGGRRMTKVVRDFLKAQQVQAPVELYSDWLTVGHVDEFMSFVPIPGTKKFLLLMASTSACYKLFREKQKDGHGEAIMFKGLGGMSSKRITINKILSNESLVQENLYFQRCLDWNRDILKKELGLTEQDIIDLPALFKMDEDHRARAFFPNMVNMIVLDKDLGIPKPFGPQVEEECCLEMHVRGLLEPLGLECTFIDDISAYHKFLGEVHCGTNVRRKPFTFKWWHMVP
Chain of UniProt P49720 (whole entry, looked up): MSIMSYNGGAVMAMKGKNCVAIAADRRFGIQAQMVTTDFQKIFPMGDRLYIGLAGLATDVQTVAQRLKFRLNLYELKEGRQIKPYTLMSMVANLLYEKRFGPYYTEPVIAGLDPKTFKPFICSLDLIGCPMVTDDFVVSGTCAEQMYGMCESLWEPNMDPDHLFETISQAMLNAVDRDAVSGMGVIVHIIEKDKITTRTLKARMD
Chain of UniProt P11712 (whole entry, looked up): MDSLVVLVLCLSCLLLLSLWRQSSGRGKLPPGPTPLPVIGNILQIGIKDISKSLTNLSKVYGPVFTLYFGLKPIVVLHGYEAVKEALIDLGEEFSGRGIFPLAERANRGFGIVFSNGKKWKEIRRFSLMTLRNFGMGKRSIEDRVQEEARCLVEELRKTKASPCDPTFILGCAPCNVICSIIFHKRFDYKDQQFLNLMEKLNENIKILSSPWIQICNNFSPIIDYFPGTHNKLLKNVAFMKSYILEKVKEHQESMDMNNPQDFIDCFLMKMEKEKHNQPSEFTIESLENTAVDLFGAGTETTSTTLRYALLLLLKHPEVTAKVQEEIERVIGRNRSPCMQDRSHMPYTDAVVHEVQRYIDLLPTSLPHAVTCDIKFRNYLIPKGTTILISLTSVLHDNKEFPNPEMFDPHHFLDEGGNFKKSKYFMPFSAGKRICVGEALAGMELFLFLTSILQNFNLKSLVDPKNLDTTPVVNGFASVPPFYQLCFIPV
Chain of UniProt O55040 (whole entry, looked up): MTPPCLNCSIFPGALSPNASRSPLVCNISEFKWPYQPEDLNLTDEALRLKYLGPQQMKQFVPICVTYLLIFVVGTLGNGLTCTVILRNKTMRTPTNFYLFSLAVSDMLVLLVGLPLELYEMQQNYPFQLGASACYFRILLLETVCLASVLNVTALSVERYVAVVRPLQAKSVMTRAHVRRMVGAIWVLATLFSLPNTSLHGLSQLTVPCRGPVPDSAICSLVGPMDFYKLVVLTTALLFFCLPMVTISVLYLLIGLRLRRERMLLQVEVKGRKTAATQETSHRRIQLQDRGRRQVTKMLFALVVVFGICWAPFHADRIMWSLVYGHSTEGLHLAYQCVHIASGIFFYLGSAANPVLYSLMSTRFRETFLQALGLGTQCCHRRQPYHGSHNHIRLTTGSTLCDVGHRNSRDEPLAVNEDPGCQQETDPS
Chain of UniProt P0A6M2 (whole entry, unmodified, looked up): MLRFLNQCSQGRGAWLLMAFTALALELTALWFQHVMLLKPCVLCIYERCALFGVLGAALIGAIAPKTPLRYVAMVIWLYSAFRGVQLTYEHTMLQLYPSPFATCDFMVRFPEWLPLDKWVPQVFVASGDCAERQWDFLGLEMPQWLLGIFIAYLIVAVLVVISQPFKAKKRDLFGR

SMILES	target	assay	system	setting	IC50
CC(C)C[C@H]1NC(=O)[C@@H]2CCCN2C(=O)[C@H](C(C)C)NC(=O)[C@@H]2CCCN2C(=O)[C@@H](CS)NC(=O)[C@H](CCCCN)NC(=O)[C@H](CCCCN)NC(=O)[C@H](CC(=O)O)NC1=O	blaNDM-1	enzyme activity, inhibitor, absorbance	–	–	12.3 µM
CNc1nc(N[C@@H](CCO)c2ccccc2Cl)nc(N2CCN(C(=O)CCl)C(C(=O)NCC3CCNC3=O)C2)n1 (stereo partly drawn)	Caspase-6 (CASP6, Homo sapiens, UniProt P55212)	enzyme activity, inhibitor	–	–	> 50 µM
CCCCNc1c(Cl)cnn(-c2ccccc2)c1=O	Disulfide bond formation protein B (Escherichia coli, UniProt P0A6M2, C49V/C8A)	enzyme activity, inhibitor	–	–	6.69 to 10.3 µM
CC(C)N1CCCCC1C(=O)NC(Cc1ccc(-c2ccccc2)cc1)B(O)O (stereo not drawn)	Proteasome subunit beta type-3/PSMB7 (Homo sapiens, UniProt P49720+Q99436)	β2c trypsin-like activity, inhibitor	–	constitutive proteasome, together with: Ac-KQL-AMC	> 10 µM
O=C(CCCCCCCCCN=C=S)CC(=O)N[C@H]1CCOC1=O	lasR	plasI-LVAgfp reporter, antagonist	PAO-JP2 pump-active	together with: OdDHL 150 nM	no inhibition
CCCCCCCCCCCCCCCCCC(=O)NC[C@H]1CC[C@H](C(=O)N[C@@H](CCC(=O)NCCCOCCOCCOCCCNC(=O)COCC(=O)N[C@@H](Cc2ccc(O)cc2)C(=O)NC(C)(Cc2ccccc2)C(=O)N[C@@H](CC(C)C)C(=O)N[C@@H](CCCC)C(=O)N[C@@H](CCCNC(=N)N)C(=O)N2CCC[C@H]2C(=O)N[C@@H](CCCNC(=N)NC)C(=O)N[C@@H](CC(N)=O)C(N)=O)C(=O)O)CC1 (stereo partly drawn)	Neuromedin-U receptor 1 (Mus musculus, UniProt O55040)	β-arrestin recruitment, antagonist, PathHunter luminescence	–	30 min preincubation, together with: 2 nM mouse NMU-23	0.011 µM
N=C(N)NCCC[C@H](NC(=O)[C@H](CCCCNC(=O)c1cncc(OS(=O)(=O)F)c1)NS(=O)(=O)c1cccc(F)c1)C(=O)NC1CCC1	SIRT5 (Homo sapiens, UniProt Q9NXA8)	inhibitor, fluorogenic	–	pre-incubation 16 h, together with: NAD+ 500 µM	7.3 ± 0.3 µM
COC(F)(F)C(F)(F)C(O)=CC(=O)c1cccnc1	Formate-nitrite transporter	L-lactate transport, inhibitor, fluorescence	yeast	pH 6.8, together with: L-lactate 1 mM	0.133 ± 0.019 µM
COc1cc(C[C@H](C)[C@H](C)Cc2ccc3c(c2)OCO3)ccc1O	DPP4 (Homo sapiens, UniProt P27487)	enzyme activity, inhibitor, fluorescence	–	–	> 100 µM
NCC[C@H]1NC(=O)[C@@H](CCC(N)=O)NC(=O)[C@H](CCC(=O)O)NC(=O)[C@@H]2CCCN2C(=O)[C@H](C(c2ccccc2)c2ccccc2)NC(=O)[C@@H]2CCCN2C(=O)[C@H]2CCCN2C(=O)[C@H](CCC(N)=O)NC1=O	blaNDM-1	enzyme activity, inhibitor, absorbance	–	–	173 µM
O=C(NC1CCN(c2ncnc3[nH]cnc23)CC1)c1cccc(NS(=O)(=O)c2ccc(C(F)(F)F)cc2)c1	N6-adenosine-methyltransferase catalytic subunit, with METTL14 (METTL3, Homo sapiens, UniProt Q86U44)	enzyme activity, inhibitor	–	–	> 10 µM
CCC(C(=O)Nc1ccccc1C)n1c(SCc2ccc(F)cc2)nc2ncccc21 (stereo not drawn)	Prothrombin (F2, Homo sapiens, UniProt P00734)	enzyme activity, inhibitor	–	–	> 100 µM
CC(C)C[C@@H]1NC(=O)[C@@H]2CCCN2C(=O)[C@@H](CS)NC(=O)[C@H](Cc2ccc(O)cc2)NC(=O)[C@@H](CCCNC(=N)N)NC(=O)[C@@H](CCCNC(=N)N)NC(=O)C(C)(C)NC(=O)[C@@H]2CCCN2C1=O	blaNDM-1	enzyme activity, inhibitor, absorbance	–	–	1.84 µM
CC[C@H](C)[C@H](NC(=O)[C@H](CCC(=O)O)NC(=O)[C@H](C)NC(=O)[C@@H](NC(=O)[C@H](Cc1c[nH]cn1)NC(=O)[C@@H](NC(=O)[C@H](CCC(=O)O)NC(=O)[C@H](C)NC(=O)[C@@H](NC(=O)[C@H](CC(C)C)NC(=O)[C@H](Cc1c[nH]cn1)NC(=O)[C@H](Cc1c[nH]cn1)NC(=O)[C@H]1CCC[C@@H]1NC(=O)[C@H](Cc1ccccc1)NC(=O)[C@H](Cc1ccccc1)NC(=O)[C@H](CCCNC(=N)N)NC(=O)[C@H](CCCNC(=N)N)NC(=O)[C@H](CCCNC(=N)N)NC(=O)[C@H](CC(C)C)NC(=O)[C@H](CC(=O)O)NC(=O)[C@H](CCC(N)=O)NC(=O)[C@@H](NC(=O)[C@H](CO)NC(=O)[C@H](CCCCN)NC(=O)CNC(=O)[C@H](CCCCN)NC(=O)[C@H](CC(=O)O)NC(=O)[C@H](Cc1c[nH]cn1)NC(=O)[C@H](CC(C)C)NC(=O)[C@H](CC(C)C)NC(=O)[C@H](CCC(N)=O)NC(=O)[C@H](Cc1c[nH]cn1)NC(=O)[C@H](CCC(=O)O)NC(=O)[C@H](CO)NC(=O)[C@@H](NC(=O)[C@H](C)N)C(C)C)[C@@H](C)CC)[C@@H](C)CC)[C@@H](C)CC)[C@@H](C)O)C(N)=O	PTH1R (Homo sapiens, UniProt Q03431)	ligand displacement, radioligand	–	cell membranes	0.0155 µM
CC(C)C[C@@H](N)C(=O)NCC(=O)N[C@H](C)C(=O)N[C@H](CO)C(=O)N[C@H](Cc1c[nH]c2ccccc12)C(=O)N[C@H](Cc1c[nH]cn1)C(=O)N[C@H](CCCNC(=N)N)C(=O)N1CCC[C@@H]1C(=O)N[C@H](CC(=O)O)C(=O)N[C@H](CCCCN)C(=O)N[C@H](CS)C(=O)N[C@H](CS)C(=O)N[C@H](CC(C)C)C(=O)NCC(=O)N[C@H](Cc1ccc(O)cc1)C(=O)N[C@H](CCC(N)=O)C(=O)N[C@H](CCCCN)C(=O)N[C@H](CCCNC(=N)N)C(=O)N1CCC[C@@H]1C(=O)N[C@H](CC(C)C)C(=O)N1CCC[C@@H]1C(N)=O	CXCR4 (Homo sapiens, UniProt P61073)	ligand displacement	–	–	0.255 µM
O=C(CCc1ccc(Br)cc1)N[C@H]1CCOC1=O	lasR	reporter gene, antagonist	Escherichia coli, JLD271 with LasR plasmid	together with: OdDHL 2 nM	0.31 µM
C#CCNC(=O)c1ccc(S(=O)(=O)N[C@@H](CCCCNC(=S)NC)C(=O)N[C@@H](CCCNC(=N)N)C(=O)N[C@@H](CC2CCCCC2)C(=O)N[C@H](CCCCN)C(=O)N[C@@H](CC2CCCCC2)C(=O)N[C@H](CCCNC(=N)N)C(=O)N[C@@H](CC2CCCCC2)C(N)=O)cc1	SIRT2 (Homo sapiens, UniProt Q8IXJ6)	enzyme activity, inhibitor, fluorescence	–	–	0.89 µM
O=C(N[C@@H]1c2ccccc2C[C@H]1N1CCCC1)c1ccc(-c2ccnc3[nH]ccc23)nc1	PRKACB (Homo sapiens, UniProt P22694)	enzyme activity, inhibitor	–	–	0.0008 µM
N[C@H](C(=O)N1CCCC1)C1CCN(c2nccc3c(-c4ncc(Cl)cc4Cl)cccc23)CC1	PADI2 (Homo sapiens, UniProt Q9Y2J8)	inhibitor, GDH-coupled	–	together with: Ca2+ 0.25 mM	0.0285 µM
Cc1ccc2c(n1)c(-c1cccc(S(C)(=O)=O)c1)c(C)n2C/C(F)=C/CN	Cytochrome P450 2C9 (CYP2C9, Homo sapiens, UniProt P11712)	enzyme activity, inhibitor	human, liver microsomes	–	0.19 µM
CCCNc1ccc(C(=O)C=C(O)C(F)(F)C(F)(F)F)cn1	Formate-nitrite transporter	L-lactate transport, inhibitor, fluorescence	yeast	pH 6.8, together with: L-lactate 1 mM	0.113 ± 0.031 µM
CCN(C)C(=O)Oc1ccccc1/C=C1\Cc2cc(OC)c(OC)cc2C1=O	CES1 (Homo sapiens, UniProt P23141)	enzyme activity, inhibitor	–	–	> 10 µM
C[n+]1ccn(C(=O)N2CCOCC2)c1	Uncharacterized hydrolase SAUSA300_2518 (Staphylococcus aureus, UniProt Q2FDS6)	enzyme activity, inhibitor	–	–	> 50 µM
CC(C)CNC(P(=O)(O)O)P(=O)(O)O	polyphosphate kinase 2 (Cytophaga hutchinsonii, UniProt A0A6N4SMB5)	–	–	–	> 1000 µM

Repeated from above:
SMILES	target	assay	system	setting	IC50
CC[C@H](C)[C@H](NC(=O)[C@H](CCC(=O)O)NC(=O)[C@H](C)NC(=O)[C@@H](NC(=O)[C@H](Cc1c[nH]cn1)NC(=O)[C@@H](NC(=O)[C@H](CCC(=O)O)NC(=O)[C@H](C)NC(=O)[C@@H](NC(=O)[C@H](CC(C)C)NC(=O)[C@H](Cc1c[nH]cn1)NC(=O)[C@H](Cc1c[nH]cn1)NC(=O)[C@H]1CCC[C@@H]1NC(=O)[C@H](Cc1ccccc1)NC(=O)[C@H](Cc1ccccc1)NC(=O)[C@H](CCCNC(=N)N)NC(=O)[C@H](CCCNC(=N)N)NC(=O)[C@H](CCCNC(=N)N)NC(=O)[C@H](CC(C)C)NC(=O)[C@H](CC(=O)O)NC(=O)[C@H](CCC(N)=O)NC(=O)[C@@H](NC(=O)[C@H](CO)NC(=O)[C@H](CCCCN)NC(=O)CNC(=O)[C@H](CCCCN)NC(=O)[C@H](CC(=O)O)NC(=O)[C@H](Cc1c[nH]cn1)NC(=O)[C@H](CC(C)C)NC(=O)[C@H](CC(C)C)NC(=O)[C@H](CCC(N)=O)NC(=O)[C@H](Cc1c[nH]cn1)NC(=O)[C@H](CCC(=O)O)NC(=O)[C@H](CO)NC(=O)[C@@H](NC(=O)[C@H](C)N)C(C)C)[C@@H](C)CC)[C@@H](C)CC)[C@@H](C)CC)[C@@H](C)O)C(N)=O	PTH1R (Homo sapiens, UniProt Q03431)	ligand displacement, radioligand	–	cell membranes	0.0155 µM
CCCCNc1c(Cl)cnn(-c2ccccc2)c1=O	Disulfide bond formation protein B (Escherichia coli, UniProt P0A6M2, C49V/C8A)	enzyme activity, inhibitor	–	–	6.69 to 10.3 µM
COc1cc(C[C@H](C)[C@H](C)Cc2ccc3c(c2)OCO3)ccc1O	DPP4 (Homo sapiens, UniProt P27487)	enzyme activity, inhibitor, fluorescence	–	–	> 100 µM
